Published values gathered from unrelated publications.
“And” joins repeats or separate records; there may be more than shown. Numbers after ± are the reported error.

C=C(NC(=O)c1csc(-c2nc3c(cc2O)-c2nc(cs2)C(=O)NC(C(C)O)C(=O)NC(=C(C)OC)c2nc(cs2)C(=O)NC2c4nc(cs4)C(=O)NC(COC(=O)c4c5c6c(cccc6n4O)COC(=O)C(OC4CC(C)(O)C(N(C)C)C(C)O4)C2OC5)c2nc-3cs2)n1)C(N)=O (centres unmarked) — volume of distribution (cynomolgus monkey, male, plasma; intravenous infusion, 3 mg/kg single dose): 1150 mL/kg
Cn1cnc([N+](=O)[O-])c1Sc1ccccc1C(=O)NCCC(N)=O — remaining compound (LC-MS/MS; CD-1 mouse, CD-1 mouse blood; 1 µM, 30 min): 55.7%
O=C(O)CCCOc1ccc([18F])cc1-c1cc(-c2ccccc2C(F)(F)F)n(-c2ccccc2)n1 — absorbed dose (OLINDA/EXM from mouse data; human adults, brain): 4.51 µGy/MBq
O=C(N/N=C/c1ccc(C[n+]2ccccc2)cc1)N/N=C/c1ccc(C[n+]2ccccc2)cc1 — ΔTm (MYC parallel G4 DNA; FRET melting; 1 µM, DNA 0.2 µM): 3.6 ± 0.3 °C
COc1ccc(C(N)=O)cn1 — plasma concentration (Han Wistar rats, male, plasma; oral, 30 mg/kg, 0.25 h): 77.4 µM
CCCCN1C(=O)c2cccc3c(NCCCCCCN4CCOCC4)ccc(c23)C1=O — Stokes shift (acetonitrile): 91 nm
O=C1c2sc(-c3ccc(N4CCC(CO)CC4)nc3F)nc2CCN1c1cccnc1 — concentration (CD1 mouse, plasma; i.v., dose not given, 1 h): 1.55 ng/mL and 1.25 ng/mL and 1.38 ng/mL
CCCN(C)c1cc(C(F)(F)F)nc(SCCC(=O)NCc2ccco2)n1 — plasma uric acid (Wistar rat, plasma; intraperitoneal, 25 mg/kg, 2 h post-dose; reference: vehicle control): no effect
Cc1ccccc1Nc1ncnc2[nH]c(/C=C/c3ccccc3)nc12 — purity (HPLC; solution, dark; before light exposure): 99.1%
O=C(Nc1cnccc1-c1ccc([18F])nc1)c1ccnc(NC(=O)C2CC2)c1 — mean SUV (ex vivo gamma counting; GSK-3β transgenic mice, early-stage, left kidney; intravenous, 120 min): 0.244
CC(C)Cc1ccc(C(C)C(=O)NC(CCCCNC(=O)CCOCCOCCOCCOCCOCCOCCNC(=O)CN2CCN(CC(=O)[O-])CCN(CC(=O)[O-])CCN(CC(=O)[O-])CC2)C(=O)Nc2cccc3c(C(=O)NCC(=O)N4CC(F)(F)C[C@H]4C#N)ccnc23)cc1.[68Ga+3] (some centres unmarked) — radiochemical stability (human serum; 60 min, 37 °C, 68Ga-labelled): 98.44 ± 0.7%
COc1ccc2c(c1)CCn1c[n+]3c(c1-2)-c1ccc(OC)cc1CC3 — Hematocrit (female NSG mice, blood; 6 mg/kg, day 14, 5 days per week): 39.6 ± 3.26%
CCCCN1C(=O)c2cccc3c(NCCCN4CCOCC4)ccc(c23)C1=O — fluorescence quantum yield (1,4-dioxane): 0.29
COCC1CN(C2CCN(c3cc(OC)c(Nc4ncc(Br)c(Nc5ccc6c(c5P(C)(C)=O)OCCO6)n4)cc3C)CC2)C1 — adverse events (first-in-human trial; human; oral, 150 mg once daily; any treatment-related): 83.3%
CN(O)C(=O)CCC(=O)NCCCN(CCCCN(CCCNC(=O)CCC(=O)N(C)O)C(=O)CCC(=O)N(C)O)C(=O)CCC(=O)N(C)O.[89Zr] — tracer uptake (mouse, brain; 4 h): 0.02 %ID/g
[11CH3]N1CCC(NC(=O)c2cc(-c3c(O)cc(O)cc3Oc3ccc([N+](=O)[O-])cc3)on2)CC1 — standardized uptake value (healthy female Wistar rats, lungs; intravenous, 2 min): 1.8 ± 0.3 g/mL
CCCCCCCOc1ccc(CC[C@](N)(CO)COP(=O)(O)O)cc1C(F)(F)F — renal clearance (healthy men, urine and plasma; oral, 0.25 mg once daily, day 21, fed state): 0.0297 mL/min
CCCCN1C(=O)c2cccc3c(NCCCCN4CCOCC4)ccc(c23)C1=O — Stokes shift (DMSO): 87 nm
COC1CN([C@H]2CC[C@H]([C@@]3(C)Oc4c(Cl)cc(C(=O)NCc5c(SC)cc(C)[nH]c5=O)c(C)c4O3)CC2)C1 — log2 fold change (RNA-seq, item: MYO1D; human, whole blood; dose not given, 24 h; reference: pretreatment baseline): 1.19
CC[n+]1cccc2cc(/C=N/NC(=O)N/N=C/c3ccc4c(ccc[n+]4CC)c3)ccc21 — ΔTm (hp2 hairpin duplex DNA; FRET melting; 1 µM): 2.2 ± 0.5 °C
COc1cccc(OC)c1-c1cc(C(=O)NC2(C(=O)O)C3CC4CC(C3)CC2C4)nn1-c1ccc(C(=O)NCCNC(=O)[C@H](CCCCNC(=O)[C@H](CC(C)C)NC(=O)C2OC2C(=O)O)NC(=O)CN2CCN(CC(=O)[O-])CCN(CC(=O)[O-])CCN(CC(=O)[O-])CC2)cc1C(C)C.[177Lu+3] (mixture of isomers) — tissue uptake (mouse HT-29 xenograft, large intestine; 168 h post injection, biodistribution): 0.19 %ID/g
[123I]c1ccc2nc(-c3ccc(-n4ccnn4)nc3)cn2c1 — tracer uptake (male Wistar rat, blood; intravenous, 4 MBq, 5 min): 0.4 %ID/g
CN(Cc1cc(C2CC2)on1)C(=O)c1cccc(-c2ccc(F)cc2)c1 — remaining compound (male ICR/CD-1 mouse, liver microsomes; 2 µM, 60 min, pH 7.5, without ABT): 17.1%
C/C(N)=N/C(=N\S(=O)(=O)c1ccc(C(F)(F)F)cc1)N1C[C@H](c2ccccc2)C(c2ccc(Cl)cc2)=N1 — Tmax (Beagle dog, plasma; oral, 24 mg/kg, observed value): 2 h
CCn1nc(Cl)c2c1-c1cnc(N)c(c1)O[C@H](C)c1cc(F)ccc1-c1nn(C)cc1C2 — free plasma concentration (Balb/c nude mouse, female, plasma; 0.2 mg/kg, single dose, 12 h): 0.63 nM
OCC1OC(n2cnc3c(NCc4ccc(Br)s4)ncnc32)C(O)C1O (centres unmarked) — fraction unbound (equilibrium dialysis; mouse plasma; 0.5 µg/mL, 4 h, pH 7.4): 0.064
N#C[C@@H]1CC(F)(F)CN1C(=O)CNC(=O)c1ccnc2c(NC(=O)CCOCCOCCOCCOCCOCCOCCNC(=O)[C@H](CCCCNC(=O)CN3CCN(CC(=O)[O-])CCN(CC(=O)[O-])CCN(CC(=O)[O-])CC3)NC(=O)CCCc3ccc(I)cc3)cccc12.[177Lu+3] — radiochemical stability (PBS; 1 h, 37 °C, 177Lu-labelled): 99.45 ± 0.2%
CC(C)(O)c1ncc([S@](N)(=O)=NC(=O)Nc2c3c(cc4c2CCC4)CCC3)s1 — subjects with gastrointestinal adverse events (healthy human subjects; oral, 300 mg, spray-dried dispersion): 17%
O=C(NS(=O)(=O)c1cccs1)c1cc2ccccc2n1Cc1ccc(Br)c2ccccc12 — body weight (KM mouse, chronic hyperuricaemia model; dose not given, day 12): 32.8 g and 31.2 g and 32 g and 34.6 g and 30.4 g
C=CC(=O)Nc1cc(Nc2nccc(-c3c[nH]c4ccccc34)n2)c(OC)cc1N(C)CCN(C)C — recovery (storage stability; human plasma; 10 d, on ice, LQC level): 56.6%
CCCCCCCCCCCCCCCC(=O)N[C@@H](CCCCN)C(=O)N[C@@H](CCCCN)C(=O)N[C@@H](CO)C(=O)N[C@@H](CCCNC(=N)N)C(=O)N[C@@H](C)C(=O)N[C@@H](CC(C)C)C(=O)N[C@@H](Cc1ccccc1)C(N)=O — terminal half-life (human patients, plasma; intravenous, 0.5 mg/kg over 2 h): 78.6 min
COc1cccc(OC)c1-c1cc(C(=O)NC2(C(=O)O)C3CC4CC(C3)CC2C4)nn1-c1ccc(C(=O)N(C)CCOCCOCCN(C)C(=O)[C@H](CCCCNC(=O)[C@H](CC(C)C)NC(=O)C2OC2C(=O)O)NC(=O)CN2CCN(CC(=O)[O-])CCN(CC(=O)[O-])CCN(CC(=O)[O-])CC2)cc1C(C)C.[177Lu+3] (mixture of isomers) — tissue uptake (mouse, HT-29 xenograft, brain; 4 h post injection): 0.18 %ID/g
CC(C)[C@H](NC(=O)[C@H](Cc1c[nH]c2ccccc12)NC(=O)[C@H](CCCNC(=N)N)NC(=O)[C@H](CCCNC(=N)N)NC(=O)[C@@H](NC(=O)[C@@H](NC(=O)[C@H](CCCNC(=N)N)NC(=O)[C@@H](NC(=O)[C@@H](NC(=O)[C@H](CCCNC(=N)N)NC(=O)[C@H](CCCNC(=N)N)NC(=O)[C@@H](NC(=O)[C@H](Cc1c[nH]c2ccccc12)NC(=O)[C@H](CCCNC(=N)N)NC(=O)[C@H](CCCNC(=N)N)NC(=O)[C@@H](NC(=O)[C@H](CCCNC(=N)N)NC(=O)[C@H](CCCNC(=N)N)NC(=O)[C@@H](NC(=O)[C@H](Cc1c[nH]c2ccccc12)NC(=O)[C@H](CCCNC(=N)N)NC(=O)[C@@H](N)CCCNC(=N)N)C(C)C)C(C)C)C(C)C)C(C)C)C(C)C)C(C)C)C(C)C)C(=O)N[C@@H](CCCNC(=N)N)C(=O)N[C@@H](CCCNC(=N)N)C(=O)O — sodium (CD1 mouse, plasma; intravenous, 15 mg/kg, 24 h, [14C]-labelled compound): 162 mEq/L
O=C1c2sc(-c3ccc(N4CCC(F)C4)nc3F)nc2CCN1c1cccnc1 (centres unmarked) — concentration (CD1 mouse, plasma; i.v., dose not given, 0.033 h): 469 ng/mL and 397 ng/mL and 526 ng/mL
CCCCN1C(=O)c2cccc3c(NCCCCCCCCCCN4CCOCC4)ccc(c23)C1=O — fluorescence quantum yield (DMSO): 1.03

Some of these lines once more:
COCC1CN(C2CCN(c3cc(OC)c(Nc4ncc(Br)c(Nc5ccc6c(c5P(C)(C)=O)OCCO6)n4)cc3C)CC2)C1 — adverse events (first-in-human trial; human; oral, 150 mg once daily; any treatment-related): 83.3%
CN(O)C(=O)CCC(=O)NCCCN(CCCCN(CCCNC(=O)CCC(=O)N(C)O)C(=O)CCC(=O)N(C)O)C(=O)CCC(=O)N(C)O.[89Zr] — tracer uptake (mouse, brain; 4 h): 0.02 %ID/g
[11CH3]N1CCC(NC(=O)c2cc(-c3c(O)cc(O)cc3Oc3ccc([N+](=O)[O-])cc3)on2)CC1 — standardized uptake value (healthy female Wistar rats, lungs; intravenous, 2 min): 1.8 ± 0.3 g/mL
